Published values collected from several papers.
Lines come from different studies, so protocols differ. Numbers after ± are the reported error.
LGALS3: Galectin-3 (LGALS3, Homo sapiens, UniProt P17931)
UniProt P17931, sequence (whole entry, looked up): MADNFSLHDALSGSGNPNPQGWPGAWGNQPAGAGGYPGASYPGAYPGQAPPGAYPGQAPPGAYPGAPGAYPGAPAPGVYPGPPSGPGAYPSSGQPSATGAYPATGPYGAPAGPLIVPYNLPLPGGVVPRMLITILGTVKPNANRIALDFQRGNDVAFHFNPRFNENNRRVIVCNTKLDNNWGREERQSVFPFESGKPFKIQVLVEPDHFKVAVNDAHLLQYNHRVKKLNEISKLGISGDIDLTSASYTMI
UniProt Q8BH82, sequence (whole entry, looked up): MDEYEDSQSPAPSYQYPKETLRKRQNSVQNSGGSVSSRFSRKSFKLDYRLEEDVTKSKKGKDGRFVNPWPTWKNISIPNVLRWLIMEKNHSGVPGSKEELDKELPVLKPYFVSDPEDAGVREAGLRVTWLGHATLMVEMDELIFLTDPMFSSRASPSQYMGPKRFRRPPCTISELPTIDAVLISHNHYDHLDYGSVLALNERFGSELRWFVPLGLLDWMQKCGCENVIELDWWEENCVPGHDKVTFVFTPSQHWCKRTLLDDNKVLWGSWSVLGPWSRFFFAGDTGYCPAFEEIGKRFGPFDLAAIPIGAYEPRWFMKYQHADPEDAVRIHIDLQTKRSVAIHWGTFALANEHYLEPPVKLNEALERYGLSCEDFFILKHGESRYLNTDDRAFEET
UniProt P02754, sequence (whole entry, unmodified, looked up): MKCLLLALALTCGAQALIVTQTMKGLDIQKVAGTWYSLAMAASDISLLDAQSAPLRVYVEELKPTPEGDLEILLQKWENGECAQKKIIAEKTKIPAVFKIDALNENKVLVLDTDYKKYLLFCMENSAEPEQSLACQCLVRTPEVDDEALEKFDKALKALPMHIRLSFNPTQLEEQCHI
UniProt P10275, sequence (whole entry, looked up): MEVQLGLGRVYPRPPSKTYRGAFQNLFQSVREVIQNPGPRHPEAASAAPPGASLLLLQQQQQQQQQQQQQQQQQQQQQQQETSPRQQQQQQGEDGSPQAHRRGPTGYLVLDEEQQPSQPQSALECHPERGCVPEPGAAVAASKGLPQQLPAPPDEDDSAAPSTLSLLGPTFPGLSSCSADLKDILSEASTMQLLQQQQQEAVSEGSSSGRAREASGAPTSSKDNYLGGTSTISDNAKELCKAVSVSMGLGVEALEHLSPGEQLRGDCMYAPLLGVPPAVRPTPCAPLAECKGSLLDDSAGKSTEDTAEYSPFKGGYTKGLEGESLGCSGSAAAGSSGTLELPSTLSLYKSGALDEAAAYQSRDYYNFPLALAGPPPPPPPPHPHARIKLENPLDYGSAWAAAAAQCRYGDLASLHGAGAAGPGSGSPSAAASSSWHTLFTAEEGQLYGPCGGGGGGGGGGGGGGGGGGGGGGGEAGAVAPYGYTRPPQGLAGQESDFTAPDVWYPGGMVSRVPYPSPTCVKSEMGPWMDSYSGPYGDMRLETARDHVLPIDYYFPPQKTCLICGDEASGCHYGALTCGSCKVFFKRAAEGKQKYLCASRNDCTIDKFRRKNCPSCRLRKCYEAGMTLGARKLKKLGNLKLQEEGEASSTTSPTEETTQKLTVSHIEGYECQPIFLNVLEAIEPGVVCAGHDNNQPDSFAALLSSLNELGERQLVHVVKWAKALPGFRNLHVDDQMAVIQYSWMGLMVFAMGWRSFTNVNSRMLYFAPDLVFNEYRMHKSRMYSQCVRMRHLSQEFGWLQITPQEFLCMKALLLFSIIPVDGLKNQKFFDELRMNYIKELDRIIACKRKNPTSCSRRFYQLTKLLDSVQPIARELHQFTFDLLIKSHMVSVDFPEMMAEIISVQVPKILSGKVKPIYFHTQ
UniProt Q7L0J3, sequence (whole entry, looked up): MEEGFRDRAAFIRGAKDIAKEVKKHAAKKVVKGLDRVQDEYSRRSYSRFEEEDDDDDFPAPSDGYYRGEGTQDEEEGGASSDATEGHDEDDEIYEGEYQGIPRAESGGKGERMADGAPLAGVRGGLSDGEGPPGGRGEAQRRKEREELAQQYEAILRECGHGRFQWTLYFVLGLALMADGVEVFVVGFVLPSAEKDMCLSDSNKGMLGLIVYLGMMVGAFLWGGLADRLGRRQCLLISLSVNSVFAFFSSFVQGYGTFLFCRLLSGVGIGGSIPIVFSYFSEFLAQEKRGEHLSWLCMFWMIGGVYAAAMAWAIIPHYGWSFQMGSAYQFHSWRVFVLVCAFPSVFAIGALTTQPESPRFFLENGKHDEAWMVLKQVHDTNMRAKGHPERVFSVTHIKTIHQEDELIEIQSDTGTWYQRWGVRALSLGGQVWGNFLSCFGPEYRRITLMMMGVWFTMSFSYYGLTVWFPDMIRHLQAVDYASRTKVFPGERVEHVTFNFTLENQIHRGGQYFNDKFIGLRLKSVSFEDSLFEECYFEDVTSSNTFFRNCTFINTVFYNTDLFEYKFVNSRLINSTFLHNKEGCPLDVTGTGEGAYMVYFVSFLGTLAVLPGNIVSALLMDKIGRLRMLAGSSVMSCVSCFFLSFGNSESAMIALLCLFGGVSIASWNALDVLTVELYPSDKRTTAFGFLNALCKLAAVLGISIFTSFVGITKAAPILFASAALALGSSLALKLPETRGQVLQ
UniProt P22309, sequence (whole entry, looked up): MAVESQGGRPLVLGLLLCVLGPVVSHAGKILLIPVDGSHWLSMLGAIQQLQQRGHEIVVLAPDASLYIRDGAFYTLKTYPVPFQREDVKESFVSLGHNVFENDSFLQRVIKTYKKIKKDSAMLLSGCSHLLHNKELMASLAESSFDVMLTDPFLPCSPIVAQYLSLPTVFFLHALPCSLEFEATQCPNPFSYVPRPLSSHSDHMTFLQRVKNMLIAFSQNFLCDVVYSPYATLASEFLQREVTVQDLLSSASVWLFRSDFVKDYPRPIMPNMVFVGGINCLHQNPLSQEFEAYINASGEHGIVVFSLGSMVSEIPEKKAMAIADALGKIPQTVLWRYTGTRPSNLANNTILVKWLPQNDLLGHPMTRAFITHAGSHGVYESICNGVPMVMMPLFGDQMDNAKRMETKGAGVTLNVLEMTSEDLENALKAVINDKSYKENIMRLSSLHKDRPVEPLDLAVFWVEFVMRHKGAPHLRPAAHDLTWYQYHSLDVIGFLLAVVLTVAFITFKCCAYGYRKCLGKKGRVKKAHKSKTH
UniProt P12004, sequence (whole entry, unmodified, looked up): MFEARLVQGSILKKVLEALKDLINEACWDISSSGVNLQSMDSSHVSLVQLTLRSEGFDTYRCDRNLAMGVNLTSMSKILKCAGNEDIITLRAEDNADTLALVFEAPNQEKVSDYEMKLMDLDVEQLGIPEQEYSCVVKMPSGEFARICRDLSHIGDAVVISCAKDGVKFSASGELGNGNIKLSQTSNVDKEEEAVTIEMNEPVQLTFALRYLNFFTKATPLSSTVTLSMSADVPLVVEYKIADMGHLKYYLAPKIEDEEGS
UniProt P43220, sequence (whole entry, looked up): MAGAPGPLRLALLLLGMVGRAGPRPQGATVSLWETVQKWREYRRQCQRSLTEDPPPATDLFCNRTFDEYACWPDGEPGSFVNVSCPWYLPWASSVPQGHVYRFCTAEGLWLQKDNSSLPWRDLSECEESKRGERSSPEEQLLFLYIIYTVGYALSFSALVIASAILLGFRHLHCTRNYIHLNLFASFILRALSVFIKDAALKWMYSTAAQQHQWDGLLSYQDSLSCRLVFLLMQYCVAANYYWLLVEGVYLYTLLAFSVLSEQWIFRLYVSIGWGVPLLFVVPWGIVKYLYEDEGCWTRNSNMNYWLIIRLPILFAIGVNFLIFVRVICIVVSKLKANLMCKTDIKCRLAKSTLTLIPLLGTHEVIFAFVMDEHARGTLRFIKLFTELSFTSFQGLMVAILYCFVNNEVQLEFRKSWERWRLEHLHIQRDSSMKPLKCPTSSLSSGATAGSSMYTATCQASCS
UniProt P16257, sequence (whole entry, looked up): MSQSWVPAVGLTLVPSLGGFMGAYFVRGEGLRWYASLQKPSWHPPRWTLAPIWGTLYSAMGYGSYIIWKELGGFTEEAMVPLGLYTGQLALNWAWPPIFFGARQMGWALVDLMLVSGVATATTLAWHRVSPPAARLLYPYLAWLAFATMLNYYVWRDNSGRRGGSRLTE

| Compound | target | assay | test system | conditions | how to read | measurement | result |
| --- | --- | --- | --- | --- | --- | --- | --- |
| Oc1c(C(Nc2nccs2)c2cccc(OCc3ccccc3)c2)ccc2cccnc12 (stereo not drawn) | Genome polyprotein, NS2B-NS3 protease (GP1, West Nile virus, UniProt Q9Q6P4) | enzyme activity, inhibitor | – | 0.1% CHAPS, added: tetrapeptide substrate | – | Hill slope | 1.13 ± 0.06 |
| O=C(O)[C@H]1O[C@@H](O[C@@H]2c3cc4ccc5cccc6c7ccccc7c(c3C=C[C@H]2O)c4c56)[C@H](O)[C@@H](O)[C@@H]1O | UDP-glucuronosyltransferase 1A1 (UGT1A1, Homo sapiens, UniProt P22309) | glucuronidation, substrate | UGT-expressing HEK293 homogenate | normalized to UGT expression | – | kcat | 0.22 ± 0.01 min⁻¹ |
| Cc1cc(C)c2sc(NC(=O)C3CCN(S(=O)(=O)c4ccc(F)cc4)CC3)nc2c1 | N-acyl-phosphatidylethanolamine-hydrolyzing phospholipase D (Napepld, Mus musculus, UniProt Q8BH82) | activator | RAW264.7 | concentration not given, added: PED-A1 | – | enzyme activity | increased |
| COc1ccc(-c2cc(C(F)(F)F)nc(NCc3ccccc3)n2)cc1OC | Glucagon-like peptide 1 receptor (GLP1R, Homo sapiens, UniProt P43220) | efficacy cooperativity, allosteric modulator | HEK-293T overexpressing GLP1R | added: GLP-1 | – | cooperativity factor beta | 2 |
| CC(Oc1cc(-c2ccccc2)nc2ncccc12)C(=O)N(C)c1ccccc1 (stereo not drawn) | Translocator protein (Tspo, Rattus norvegicus, UniProt P16257) | binding | rat brain homogenate | pKi minus clogD | – | lipophilic efficiency | 5.63 ± 0.04 |
| CSCC[C@H](NC(=O)[C@H](CO)NC(=O)[C@@H](NC(=O)[C@H](CCC(N)=O)NC(=O)[C@@H](CCCNC(=N)N)NC(=O)[C@@H](CCCNC(=N)N)NC(=O)[C@@H](CCCCN)NC(=O)[C@@H](CCCNC(=N)N)NC(C)=O)[C@@H](C)O)C(=O)N[C@H](C(=O)N[C@@H](CC(=O)O)C(=O)N[C@@H](Cc1ccccc1)C(=O)N[C@@H](Cc1ccc(O)cc1)C(=O)N[C@@H](Cc1c[nH]cn1)C(=O)N[C@@H](CO)C(=O)N[C@H](CCCCN)C(=O)N[C@H](CCCNC(=N)N)C(=O)N[C@H](CCCNC(=N)N)C(N)=O)[C@@H](C)O | Proliferating cell nuclear antigen (PCNA, Homo sapiens, UniProt P12004) | binding, isothermal titration calorimetry | – | pH 7.4, 25 °C, 0 mM NaCl, added: p21 peptide | – | entropic term −TΔS | 28 ± 3 kJ/mol |
| [3H]C([3H])([3H])c1cnccc1CN1C[C@@H](c2cc(F)c(F)c(F)c2)CC1=O | Synaptic vesicle glycoprotein 2A (SV2A, Homo sapiens, UniProt Q7L0J3) | radioligand binding, saturation binding | human control, pooled frontal cortex P1 fraction | – | – | Bmax | 16.9 pmol/mg |
| C=CC(=O)Oc1ccc(Cl)cc1C(=O)Nc1ccc([N+](=O)[O-])cc1Cl | Androgen receptor, AR-V7 isoform (AR, Homo sapiens, UniProt P10275) | degrader | – | concentration not given, added: cycloheximide 50 µg/mL | reference: untreated cells | protein degradation | increased |
| CCc1nc2cc3ccccc3cc2cc1C(=O)N1CCC[C@H]1C(=O)N[C@@H](C/C=C/C[C@H](NC(=O)[C@@H]1CCCN1C(=O)c1cc2cc3ccccc3cc2nc1CC)C(=O)N[C@@H](CCCCN)C(=O)NCCCN)C(=O)N[C@@H](CCCCN)C(=O)NCCCN | (CUG)10 RNA | SPR | – | – | – | residence time | 483 s |
| O=C(O)[C@H]1O[C@@H](O[C@H]2[C@H](O)[C@H](O)[C@H](O[C@H]3[C@H](O)[C@H](O)[C@H](O)O[C@@H]3C(=O)O)O[C@H]2C(=O)O)[C@@H](O)[C@@H](O)[C@@H]1O[C@@H]1O[C@@H](C(=O)O)[C@@H](O)[C@H](O)[C@@H]1O | Beta-lactoglobulin (LGB, Bos taurus, UniProt P02754, A134V/G80D) | isothermal titration calorimetry | – | concentration not given, pH 2.65, 37 °C, 50 mM KH2PO4 | ligand per protein | binding stoichiometry | 5 |
| COc1c(F)c(F)c(C(=O)N[C@H]2[C@@H](O)[C@@H](CO)O[C@@H](S[C@@H]3O[C@H](CO)[C@H](O)[C@H](NC(=O)c4c(F)c(F)c(OC)c(F)c4F)[C@H]3OS(=O)(=O)O)[C@@H]2O)c(F)c1F | LGALS3 | ITC | – | concentration not given, all parameters fitted | – | binding stoichiometry | 1.06 |
| O=C(O)CCOCCOCCOCCOCCOCc1cn([C@H]2[C@@H](O)[C@@H](CO)O[C@@H](S[C@@H]3O[C@H](CO)[C@H](O)[C@H](n4cc(-c5ccccc5)nn4)[C@H]3O)[C@@H]2O)nn1 | LGALS3 | asialofetuin binding, ELISA | – | galectin-3 5.56 µM | – | concentration for complete inhibition | > 25 µM |

Excerpt of the above:
| Compound | target | assay | test system | conditions | how to read | measurement | result |
| --- | --- | --- | --- | --- | --- | --- | --- |
| O=C(O)[C@H]1O[C@@H](O[C@H]2[C@H](O)[C@H](O)[C@H](O[C@H]3[C@H](O)[C@H](O)[C@H](O)O[C@@H]3C(=O)O)O[C@H]2C(=O)O)[C@@H](O)[C@@H](O)[C@@H]1O[C@@H]1O[C@@H](C(=O)O)[C@@H](O)[C@H](O)[C@@H]1O | Beta-lactoglobulin (LGB, Bos taurus, UniProt P02754, A134V/G80D) | isothermal titration calorimetry | – | concentration not given, pH 2.65, 37 °C, 50 mM KH2PO4 | ligand per protein | binding stoichiometry | 5 |
